# Assay results gathered from unrelated publications.
# Each line is one published result; not all experiments were run side by side.
Structure (SMILES),host,sample,route,dose,setting,bioavailability
O=S(=O)(N[C@H]1CCO[C@@H](C2c3ccccc3CCc3ccccc32)C1)c1ccc(OC(F)(F)F)cc1,mouse,plasma,oral,30 mg/kg,,40%
COC1C=COC2(C)Oc3c(C)c(O)c4c(c3C2=O)C2=NC3(CCN(CC(C)C)CC3)NC2=C(NC(=O)C(C)=CC=CC(C)C(O)C(C)C(O)C(C)C(OC(=O)Nc2cccnn2)C1C)C4=O (stereo not drawn),female CD-1 mouse,plasma,oral,10 mg/kg,,44%
C[C@@H](Nc1nc2c(cnn2C(C)(C)C)c(=O)n1Cc1cccc(F)c1)c1ccc(Cl)cc1,C57BL/6 mouse,plasma,oral,5 mg/kg,,64.6%
COC1C=COC2(C)Oc3c(C)c(O)c4c(c3C2=O)C2=NC3(CCN(CC(C)C)CC3)NC2=C(NC(=O)C(C)=CC=CC(C)C(O)C(C)C(O)C(C)C(OC(=O)c2cccnc2)C1C)C4=O (stereo not drawn),female CD-1 mouse,plasma,oral,10 mg/kg,,79%
OCC1OC(n2cnc3c(NCc4ccc(Br)s4)ncnc32)C(O)C1O (stereo not drawn),male CD-1 mouse,blood,oral,10 mg/kg,,25 to 48%
O=S(=O)(N[C@H]1CCO[C@@H](C2c3ccc(F)cc3CCc3cc(F)ccc32)C1)c1ccc(OC(F)(F)F)cc1,mouse,plasma,oral,30 mg/kg,,41%
CCC1(CC)CC(=O)N(C2c3cc(C(=O)NC4c5ccccc5CC4O)ccc3OC2(C)COC)C(=N)N1 (stereo not drawn),male C57BL/6 mouse,plasma,oral,,,14%
CCC1C(COc2nccc3cc(C(N)=O)c(OC)cc23)NC(=O)C1F (stereo not drawn),CD-1 mouse,plasma,oral,10 mg/kg,,3.6%
Cn1c2cc([S+](C)[O-])sc2c2cnn(Cc3cccc(N)c3)c(=O)c21 (stereo not drawn),male BALB/c mouse,plasma,intraperitoneal,50 mg/kg,single dose,> 100%
Cn1ccc(-c2cc(Cl)c(Cl)c3[nH]c4c(c23)CN(C(=O)CO)CC4)n1,C57BL/6 mouse,blood,oral,20 mg/kg,,325%
COC(=O)C1=CNC=C(C(=O)OC)C1c1ccc(F)c(C(F)(F)F)c1,male C57BL/6 mouse,plasma,oral,50 mg/kg,,48.6%
CCn1cc(-c2cc(Cn3ccnc3)cc3c2CCN([C@H](c2cc(OC)ccn2)C2CC2)C3=O)c(C(F)(F)F)n1,male CD-1 mouse,plasma,oral,10 mg/kg,,42%
Cc1cc(C(=O)N[C@@H](CC(=O)NC(C)(C)C)C(=O)NCCNC(=O)c2cccc(-c3cc[nH]n3)c2)no1,mouse,plasma,oral,,,0%
COc1cnc2cccc(N3CCc4c(cc(Cn5ccnc5)cc4-c4cn(C)nc4C(F)(F)F)C3=O)c2c1,male CD-1 mouse,plasma,oral,50 mg/kg,,150%
COC1C=COC2(C)Oc3c(C)c(O)c4c(c3C2=O)C2=NC3(CCN(CC(C)C)CC3)NC2=C(NC(=O)C(C)=CC=CC(C)C(O)C(C)C(O)C(C)C(OC(=O)Nc2cnccn2)C1C)C4=O (stereo not drawn),female CD-1 mouse,plasma,oral,10 mg/kg,,74%

# For quick reference, copied from above:
Structure (SMILES),host,sample,route,dose,setting,bioavailability
Cn1ccc(-c2cc(Cl)c(Cl)c3[nH]c4c(c23)CN(C(=O)CO)CC4)n1,C57BL/6 mouse,blood,oral,20 mg/kg,,325%
COC(=O)C1=CNC=C(C(=O)OC)C1c1ccc(F)c(C(F)(F)F)c1,male C57BL/6 mouse,plasma,oral,50 mg/kg,,48.6%
